# Results collected from several papers.
# A part holds a random share of what one study measured. Substitutions count along the parent as printed.

# Series 1 — method: universal PBM; molecule type: double-stranded DNA, one strand shown; matrix: in vitro; tested at: 600 nM; reading: higher = stronger binding
# Target: Sal-like protein 4, full length isoform A (SALL4, Homo sapiens, UniProt Q9UJQ4, residues 1-1053)
# Chain of UniProt Q9UJQ4 (whole entry, looked up): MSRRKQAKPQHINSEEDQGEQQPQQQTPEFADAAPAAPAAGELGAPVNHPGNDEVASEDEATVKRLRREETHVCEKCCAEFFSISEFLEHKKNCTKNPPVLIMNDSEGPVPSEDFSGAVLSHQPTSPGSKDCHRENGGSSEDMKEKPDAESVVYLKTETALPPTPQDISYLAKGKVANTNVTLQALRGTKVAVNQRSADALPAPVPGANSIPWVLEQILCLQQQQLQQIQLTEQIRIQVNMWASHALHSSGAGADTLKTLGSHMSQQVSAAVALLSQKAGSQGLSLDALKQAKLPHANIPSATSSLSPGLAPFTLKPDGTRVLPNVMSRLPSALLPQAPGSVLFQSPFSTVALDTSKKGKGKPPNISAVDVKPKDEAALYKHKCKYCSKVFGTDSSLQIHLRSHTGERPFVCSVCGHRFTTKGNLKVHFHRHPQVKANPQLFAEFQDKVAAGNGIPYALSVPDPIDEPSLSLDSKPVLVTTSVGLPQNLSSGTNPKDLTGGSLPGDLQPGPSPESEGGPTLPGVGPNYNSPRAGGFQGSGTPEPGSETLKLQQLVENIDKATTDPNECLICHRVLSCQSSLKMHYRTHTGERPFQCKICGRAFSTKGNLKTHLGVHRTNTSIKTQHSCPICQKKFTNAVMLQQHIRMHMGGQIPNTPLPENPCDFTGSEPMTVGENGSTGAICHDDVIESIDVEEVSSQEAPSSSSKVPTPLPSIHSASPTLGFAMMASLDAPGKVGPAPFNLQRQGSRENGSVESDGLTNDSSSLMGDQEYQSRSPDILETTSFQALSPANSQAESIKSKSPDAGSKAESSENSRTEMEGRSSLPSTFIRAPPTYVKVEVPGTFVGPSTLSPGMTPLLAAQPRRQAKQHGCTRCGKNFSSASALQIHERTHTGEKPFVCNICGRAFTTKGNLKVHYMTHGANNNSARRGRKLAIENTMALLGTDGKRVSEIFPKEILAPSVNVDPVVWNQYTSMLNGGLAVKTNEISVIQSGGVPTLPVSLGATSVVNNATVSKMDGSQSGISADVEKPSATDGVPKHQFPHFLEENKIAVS
# Notes: 8-mer, flanks averaged, mean of replicates
Sequence,E-score
AAAACCGA,0.0134
ATTCGTGG,0.014
GACTAATC,0.0451
AGCTGGGA,-0.156
CTCTGCAC,-0.144
ACTTTTAT,0.281
AGCAACCC,-0.185
AGAATCCG,-0.214
AGGGAAAG,-0.0347
CTTCGGAA,0.0127
GCACAGAA,-0.0194
AACAGCGT,0.0492
CAGCAACG,0.00191
AAAGCGTG,-0.0991
GGCGAGGA,-0.026
AGGACCAG,-0.26

# Series 2 — method: RNA Bind-n-Seq; molecule type: RNA; matrix: in vitro; tested at: 365 nM; relative to: no-protein control; reading: higher = stronger binding
# Target: RNA binding protein fox-1 homolog 2, RRM domain, GST-SBP tag (RBFOX2, Homo sapiens, UniProt O43251-10, residues 100-194)
# Notes: natural RNA segment, single round, ends assumed
# All sequences stand within: GGGAGUUCUACAGUCCGACGAUC … UGGAAUUCUCGGGUGCCAA
# Residues (chain): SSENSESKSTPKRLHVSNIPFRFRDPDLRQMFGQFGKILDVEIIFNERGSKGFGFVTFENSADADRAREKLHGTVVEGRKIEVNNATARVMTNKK
Sequence,RBNS enrichment (R)
GUUCCCAAGAGAUCGGCAACCUUUUUGUCCCUUUCUCAUAAGAAAGGGACACUCCUACAGGUGAGAGUGUAUACCUUACUCUCUCAGAUAAGUGGCUGGACUUAUCUUGU,0.254
AUGUAGUUUUUACAGCCUGAAAAUUAACUGCCAUGAACAUUCUUUGGUGAUGUAAGCAAGUAAAACCCAAUGGACUCUGUUGUGAUAUCCUUUUGUGUUCCAGCCUAGGC,2.7
UUUCCUUUAAGAUGCAUAUGCUUAACUAUUUGCAGUGUAUUCCUCAACAUAAACUUGUCUGACAGCAAAUAGUCAGAUGCUGCAGUGUUUGGAAAUGAUGUACAUCUUGA,0.482
GCAGGAUCAGUCUAACUAUACUAUUAGGUGCAUGUAUUCUCUUUUCACUAACUUAUACUUGUCUAUCUAGAAUACAGGUCUUCCAGUCAGCUGGUCAUUUACCAGGUGUG,0.308
CCCUUCCAGAGGAAUAAGUUUGUUCCCUGACCACACUGGGGGACCCAGACUUCAACCCCACAGAGUCCUCUCUUACCACCCCCAUAUGCUUCGCCCCACUGCAUAGCUGU,0.47
AUGAAGCAAACACAAUUGGUGACAAAGGUUGUCAAUCAUUUCUUCAAAAUUAUAAUGCAGUUCUAAUGGUCAGCAUAUUUUGAUAUUAAAUUUAAAGAUCACCUCUCUGC,0.39
UGUAGCUUUUAUUUAUUCAGAACGCAUACGGCAUGUUAAUGACUCUGAUGGUGUCCUCCUCUGGGCAGCUGUAUAGGAUCAUCAUGUGGUUACAAAAAAUACUUCCCUCA,1.43
CUUGUCUCUGCUCUUAUGAAACUUGCUUAUUCUUGAAAACCUUCUGCAUUUCCAUUUUUUCCUCUCUUCCAAUUUAUUCUCCAUGUAACAGAGUAGUUUGGUUUUUAAAA,0.564

# Series 3 — target: CCNF, cyclin fold, Cln2 fusion (human); method: yeast growth competition, sequencing; matrix: yeast; notes: strong parent motif; relative to: not given; reading: higher = stronger binding
# Starting sequence: RBL2 docking peptide (human); STTRRRLFVENDS
Variant,normalised enrichment score
S13C,7.27
S1Q,8.1
S1G,8.2
E10A,7.15
N11R,7.98
V9M,8.07
V9A,8.72
S1D,6.59
T3Q,3.21
R5P,0.132
T2C,8.18
D12I,8.54
N11C,8.54
S13V,7.49
S1F,8.44
E10N,7.53
F8A,1.38

# Series 4 — method: aptamer microarray, sandwich; molecule type: DNA with 2'F-ANA; matrix: in vitro; tested at: 200 nM; with: Cy3 exosite-II aptamer, 400 nM; reading: higher = stronger binding; sequence: GGTTGGTGTGGTTGG
# Target: Prothrombin, mature alpha-thrombin (F2, Homo sapiens, UniProt P00734)
# Notes: whole 15-mer aptamer, many near background
Modification,mean fluorescence intensity [a.u.]
2'F-ANA at 2 8 9 10 15,144
2'F-ANA at 1 4 5 8 9 12 13,75.3
2'F-ANA at 1 4 7 9 11 12 13 14,54.2
2'F-ANA at 1 2 5 6 8 9 10 11 12 13 15,54.6
2'F-ANA at 4 5 7 9 10 11,47.2
2'F-ANA at 3 7 8 9 11 12 13 14 15,658
2'F-ANA at 1 7 8 10 11 13 14,50.3
2'F-ANA at 1 2 4 12 14,69.2
2'F-ANA at 1 7 8 11 13,210
2'F-ANA at 2 6 7 8 10 11 13 14 15,77.6
2'F-ANA at 1 3 5 7 8 9 10 13 14,69.1
2'F-ANA at 2 8 10 11 13 14 15,74.1
2'F-ANA at 1 4 9 11 12 14,50.3
2'F-ANA at 1 2 6 7 8 9 12 14 15,75.6
2'F-ANA at 1 3 6 8 10 11 12 14,63.9
2'F-ANA at 3 4 5 6 9 10 15,52.5
2'F-ANA at 1 4 5 6 7 11 15,51
2'F-ANA at 1 3 4 6 7 10 12 13 14,85.5
2'F-ANA at 3 10 11 13 15,508
2'F-ANA at 1 3 4 5 6 7 8 9 10 11 13 14,57.5
2'F-ANA at 3 4 5 6 7 9 13 15,55.3

# Repeated from above (series 1):
Sequence,E-score
AGGGAAAG,-0.0347
CTTCGGAA,0.0127
GCACAGAA,-0.0194
AACAGCGT,0.0492
